Experimental data from different studies.
Compare with care: the assays were run in different laboratories. “And” joins repeats or separate records; there may be more than shown. ± marks the error that the study gave.

CCOC(=O)C1(Cc2ccccc2)Oc2cc(F)ccc2N(Cc2ccccc2)C1=O (stereo not drawn)
inhibition (L02; cell growth or viability, CCK-8; 3.13 µM, 72 h): 0.1%

CSCC[C@H](NC(=O)[C@@H](NC(=O)[C@H](CCC(N)=O)NC(=O)[C@H](CO)NC(=O)[C@@H](N)C(C)C)[C@@H](C)O)C(=O)N[C@@H](CCCNC(=N)N)C(=O)N[C@@H](CCC(N)=O)C(=O)N[C@H](C(=O)N[C@@H](C)C(=O)N[C@H](C(=O)N1CCC[C@H]1C(=O)N[C@@H](CC(C)C)C(=O)N[C@@H](CC(C)C)C(=O)N[C@@H](Cc1c[nH]c2ccccc12)C(=O)N[C@@H](Cc1ccccc1)C(=O)N[C@@H](Cc1c[nH]c2ccccc12)C(=O)N[C@H](C(=O)NCC(=O)N[C@@H](CO)C(=O)N[C@@H](CC(C)C)C(=O)NCCOCCOCCOCCOCCOCCOCCOCCOCCOCCOCCOCCOCCC(=O)N[C@@H](CS)C(N)=O)[C@@H](C)O)C(C)C)[C@@H](C)O
selectivity ratio (SW480; phage binding; 10 min, 37 °C; relative to: control phage): 4.5 ± 2.2

O=C(O)c1ccc(-c2nc(-c3ccccc3Cl)c3sccn23)cc1
CD41-positive cell number (CD34+ hematopoietic stem cells; 10 µM, day 12, without TPO): 5.43e+06 and 4.92e+06

Cc1cc(Oc2nc(N3CC[C@@H](c4ccncc4)C3)ncc2F)[nH]n1
IC50 (IGROV-1; cell proliferation): 45.7 µM

CC(C)C[C@H](NC(=O)[C@H](CC(=O)O)NC(=O)CNC(=O)[C@@H](N)CCCNC(=N)N)C(=O)N[C@@H](C)C(=O)N[C@H](C(=O)N[C@@H](CC(C)C)C(=O)N[C@@H](CCCNC(=N)N)C(=O)N[C@@H](CCC(N)=O)C(=O)N[C@@H](CC(C)C)C(=O)N[C@@H](C)C(=O)N[C@@H](CCC(N)=O)C(=O)N[C@@H](CCC(=O)O)C(=O)N[C@@H](CC(=O)O)C(=O)NCC(=O)N[C@H](C(=O)N[C@H](C(=O)NCC(=O)N[C@H](C(=O)N[C@@H](CCCNC(=N)N)C(=O)NCCOCCOCCOCCOCCOCCOCCOCCOCCOCCOCCOCCOCCC(=O)N[C@@H](CS)C(N)=O)C(C)C)C(C)C)C(C)C)[C@@H](C)O
selectivity ratio (H1819; phage binding; 10 min, 37 °C; relative to: control phage): 250 ± 30

C#CCN1C(=O)C(CC#C)(C(=O)OCC)Oc2ccccc21 (stereo not drawn)
inhibition (HaCaT; cell growth or viability, CCK-8; 25 µM, 72 h): 0.36%

COc1ccccc1-c1ccncc1C(=O)Nc1nnc(OCc2ccc(Cl)cc2)s1
colony survival (DLD-1 BRCA2-/-; 2 µM, mean of 3 replicates; relative to: untreated): 31.3%

C=CCN1C(=O)C(CC=C)(C(=O)OCC)Oc2cc(F)ccc21 (stereo not drawn)
inhibition (HaCaT; cell growth or viability, CCK-8; 0.78 µM, 72 h): 0.21%

CC(C)(C)C(=O)OCOP(=O)(OCOC(=O)C(C)(C)C)C1CCCN(O)C1=O (stereo not drawn)
CC50 (IGROV-1): > 100 µM

For quick reference, copied from above:
COc1ccccc1-c1ccncc1C(=O)Nc1nnc(OCc2ccc(Cl)cc2)s1
colony survival (DLD-1 BRCA2-/-; 2 µM, mean of 3 replicates; relative to: untreated): 31.3%
